{"data": "Experimental data collected from several papers", "note": "Protocols differ between the studies behind these lines. Values joined by “and” are separate records of one study, mostly repeats; a detail may differ. pIC50: −log10 of the molar value."}
{"Compound": "COc1ccccc1-c1ccncc1C(=O)Nc1nnc(OCc2ccc(Cl)cc2)s1", "target or system": "DLD-1 BRCA2-/-", "conditions": "1 µM", "endpoint": "colony count", "result": "22 and 35 and 18 and 19 and 33 and 15"}
{"Compound": "Cc1ncsc1-c1ccc(C(C)NC(=O)C2CC(O)CN2C(=O)C(NC(=O)CCCCCCCCCCN2CCCC(Nc3ncc(Cl)c(Nc4ccccc4S(=O)(=O)C(C)C)n3)C2)C(C)(C)C)cc1 (centres unmarked)", "target or system": "22Rv1", "assay": "RNA-seq, item: SLC12A7 mRNA", "conditions": "concentration not given", "scale": "relative to: DMSO", "endpoint": "log2 fold change", "result": -1}
{"Compound": "C=CC(=O)N1[C@@H](c2ccc3c(c2)OCO3)c2[nH]c3ccccc3c2C[C@H]1C(=O)N1CCN(C)CC1", "target or system": "human cyclin E1 N112C-3xFLAG:CDK2", "assay": "co-IP with TMT proteomics, item: PUF60", "conditions": "concentration not given, Q9UHX1", "scale": "relative to: wild type DMSO", "endpoint": "relative co-enrichment", "result": "132%"}
{"Compound": "Nc1ncc(-c2cc(-c3cnn(CC(F)(F)F)c3)ncc2F)nc1C(=O)NC1CNCC(F)C1 (centres unmarked)", "target or system": "MYLK", "assay": "KINOMEscan", "conditions": "1 µM", "scale": "relative to: DMSO control", "endpoint": "remaining binding", "result": "100%"}
{"Compound": "CCN(CC)CC(=O)Nc1cccc(-n2cc(-c3ccc4ccc(-c5cn(-c6cccc(NC(=O)CN(CC)CC)c6)nn5)cc4c3)nn2)c1", "target or system": "RCC4", "assay": "PCR angiogenesis array, item: MMP2", "conditions": "5 x IC50, 6 h, normoxia", "scale": "relative to: untreated", "endpoint": "fold regulation", "result": 1.57}
{"Compound": "COC1CN([C@H]2CC[C@H]([C@@]3(C)Oc4c(Cl)cc(C(=O)NCc5c(SC)cc(C)[nH]c5=O)c(C)c4O3)CC2)C1", "assay": "RNA-seq, item: RUNX1T1 mouse homolog", "system": "mouse, HT-1376 xenograft, whole blood", "conditions": "dose not given", "scale": "relative to: vehicle", "endpoint": "log2 fold change", "result": 3.53}
{"Compound": "C=CC(=O)Nc1cccc(Cn2ncc3cnc(Nc4cnn(CCOC)c4)nc32)c1", "target or system": "ALK human", "assay": "binding, KINOMEscan", "conditions": "100 nM", "scale": "lower = stronger binding", "endpoint": "percent of control", "result": "80%"}
{"Compound": "CNS(=O)(=O)Nc1nccc(Cc2c(C)c3ccc(Oc4ncccc4F)cc3oc2=O)c1F", "target or system": "LUDLU-1", "assay": "cell viability", "conditions": "7 days", "endpoint": "pIC50", "result": "< 6.00"}
{"note": "Repeated from above:"}
{"Compound": "CNS(=O)(=O)Nc1nccc(Cc2c(C)c3ccc(Oc4ncccc4F)cc3oc2=O)c1F", "target or system": "LUDLU-1", "assay": "cell viability", "conditions": "7 days", "endpoint": "pIC50", "result": "< 6.00"}
